# Results of several laboratories.
# Each numbered part is a random draw from the data of one study; scales do not carry over between parts. Positions count from the first letter of the parent shown.

# Sample 1 — target: CEP164, C-terminal peptide (human); method: DHFR complementation, deep sequencing; sample: yeast; relative to: wild type; direction: higher = weaker binding
# Setting: single substitutions, model-inferred values
# Starting sequence: PDZK1, PDZ domain 2 (human); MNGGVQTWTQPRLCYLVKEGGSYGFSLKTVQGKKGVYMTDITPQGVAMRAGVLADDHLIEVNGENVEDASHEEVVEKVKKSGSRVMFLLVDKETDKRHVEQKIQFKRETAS; partner HNRVKVYRF
Substitution,binding free energy change
K96N,-0.213 kJ/mol
K33S,1.1 kJ/mol
M86H,-0.0489 kJ/mol
Y37R,2.04 kJ/mol
R107Y,-0.3 kJ/mol
E93A,-0.39 kJ/mol
I59S,5.22 kJ/mol
C14D,5.9 kJ/mol
S70V,0.498 kJ/mol
D68L,0.321 kJ/mol
C14I,-0.439 kJ/mol
K96Y,-0.106 kJ/mol
V36N,-0.209 kJ/mol

# Sample 2 — method: protein binding microarray; molecule type: double-stranded DNA, one strand shown; sample: in vitro; concentration: not given; relative to: not given; direction: higher = stronger binding
# Target: Histone acetyltransferase KAT6A, winged helix 1, GST fusion (KAT6A, Homo sapiens, UniProt Q92794, residues 1-85)
# Setting: 8-mer, flanks averaged, mean of 2 arrays, mostly near background
# Construct (chain): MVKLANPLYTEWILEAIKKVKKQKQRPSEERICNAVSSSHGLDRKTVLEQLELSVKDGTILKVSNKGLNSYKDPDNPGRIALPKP
Sequence,E-score
ACTATTAT,-0.0793
CACAGCCG,0.313
AAACCCTC,-0.0712
ATGTCCAC,-0.12
GGACTAAA,0.0357
AAGATCTA,-0.129
CGGACTCA,0.152
AACTAAGT,-0.0789
ATTGCTCC,-0.0697
CGAATCTC,0.0159
AGATGAAT,-0.155
CAGGTGAC,-0.059
GACTGGAA,-0.238
AGTATTGC,-0.0695
AATGGGAG,-0.209
GATCCCGC,0.346
AGCGTTTG,-0.116
TCGACGCA,0.127

# Sample 3 — method: DHFR PCA, deep sequencing; sample: yeast; together with: (+)-ABA 2500 µM; relative to: wild-type fitted maximum; direction: higher = stronger binding
# Target: ABI1, truncated, D143A, DHFR fusion (Arabidopsis thaliana)
# Setting: methotrexate growth selection, single substitutions
# Starting sequence: PYL1, truncated, DHFR fusion (Arabidopsis thaliana); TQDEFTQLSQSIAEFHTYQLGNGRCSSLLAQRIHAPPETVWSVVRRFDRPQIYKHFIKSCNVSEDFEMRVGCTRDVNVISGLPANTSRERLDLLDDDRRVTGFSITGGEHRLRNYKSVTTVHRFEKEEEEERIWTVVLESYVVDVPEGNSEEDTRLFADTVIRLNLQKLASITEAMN; partner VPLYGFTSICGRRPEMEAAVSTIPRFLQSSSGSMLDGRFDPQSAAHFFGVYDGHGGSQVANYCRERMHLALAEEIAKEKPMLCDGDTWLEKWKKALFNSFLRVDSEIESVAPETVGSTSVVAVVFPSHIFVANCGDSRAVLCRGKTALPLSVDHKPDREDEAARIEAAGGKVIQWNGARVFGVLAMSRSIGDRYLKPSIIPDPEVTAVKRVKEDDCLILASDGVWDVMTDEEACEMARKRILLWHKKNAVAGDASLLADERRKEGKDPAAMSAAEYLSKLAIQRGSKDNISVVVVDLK
Substitution,relative binding score [%]
E14I,85.4
K54M,-6.32
T39Q,96.9
Q51A,91.2
R132C,101
A84I,22.9
S150V,89.7
T154K,7.73
P146E,65.8
R74W,11.1
L112T,51.7
H34R,88.3
T135S,106
C72Q,94.8
H110K,40.2
D92K,52.5

# Sample 4 — target: CCND2, cyclin fold, Cln2 fusion (human); method: yeast growth competition, sequencing; sample: yeast; setting: weak parent motif; relative to: not given; direction: higher = stronger binding
# Starting sequence: LLGL2 docking peptide (human); KSLKKSLRQSFRR
Substitution,normalised enrichment score
KSLAKSLRQSFRR [K4A],-0.391
KSLKASLRQSFRR [K5A],-0.128
KSLKKSLRQAFRR [S10A],-1.16
KSLKKSLRQSARR [F11A],-0.242
KSLKKSLRASFRR [Q9A],0.254
KSLKKALRQSFRR [S6A],-0.728
KSAKKSLRQSFRR [L3A],-0.379

# Sample 5 — method: universal PBM; molecule type: double-stranded DNA, one strand shown; sample: in vitro; concentration: 600 nM; direction: higher = stronger binding
# Target: Sal-like protein 4, full length isoform A (SALL4, Homo sapiens, UniProt Q9UJQ4, residues 1-1053)
# Sequence of UniProt Q9UJQ4 (whole entry, looked up): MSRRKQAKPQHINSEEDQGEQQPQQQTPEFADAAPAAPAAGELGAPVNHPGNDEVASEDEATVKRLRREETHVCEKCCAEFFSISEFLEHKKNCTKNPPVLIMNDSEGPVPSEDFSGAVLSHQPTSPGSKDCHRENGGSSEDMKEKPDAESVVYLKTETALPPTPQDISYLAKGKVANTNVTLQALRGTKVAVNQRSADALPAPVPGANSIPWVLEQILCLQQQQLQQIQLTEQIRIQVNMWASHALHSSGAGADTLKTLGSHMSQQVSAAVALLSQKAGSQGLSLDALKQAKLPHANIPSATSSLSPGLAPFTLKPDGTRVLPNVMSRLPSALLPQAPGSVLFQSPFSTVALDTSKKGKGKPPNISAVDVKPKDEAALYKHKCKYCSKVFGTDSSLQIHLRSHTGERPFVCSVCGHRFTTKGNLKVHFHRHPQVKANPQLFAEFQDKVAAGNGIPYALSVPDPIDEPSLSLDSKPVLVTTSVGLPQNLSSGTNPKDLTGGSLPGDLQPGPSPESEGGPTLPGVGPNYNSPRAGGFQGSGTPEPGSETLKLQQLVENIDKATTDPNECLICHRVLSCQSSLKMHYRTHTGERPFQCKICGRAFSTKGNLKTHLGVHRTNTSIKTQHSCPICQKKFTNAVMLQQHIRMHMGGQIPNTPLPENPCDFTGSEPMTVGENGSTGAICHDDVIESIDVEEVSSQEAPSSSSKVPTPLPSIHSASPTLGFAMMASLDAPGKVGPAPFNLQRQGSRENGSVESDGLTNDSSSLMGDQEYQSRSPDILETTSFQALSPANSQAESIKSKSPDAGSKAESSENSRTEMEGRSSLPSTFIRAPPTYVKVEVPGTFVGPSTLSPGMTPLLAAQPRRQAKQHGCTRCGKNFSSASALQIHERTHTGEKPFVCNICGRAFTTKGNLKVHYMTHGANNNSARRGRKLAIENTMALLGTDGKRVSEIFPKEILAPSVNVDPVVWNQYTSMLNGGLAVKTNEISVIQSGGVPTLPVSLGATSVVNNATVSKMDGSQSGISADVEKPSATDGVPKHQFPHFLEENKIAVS
# Setting: 8-mer, flanks averaged, mean of replicates
Sequence,E-score
AAAAACTG,0.136
GCGTAGAA,-0.0742
AGCTCAGA,-0.151
GTACGCAC,-0.114
AGCTCCCC,-0.23
ATCCTTTC,0.169
ACACTCTA,0.0613
ATGACCAC,-0.0375
TCGGGTCA,-0.129
AGATAACT,0.177
ATGTATTG,0.245
CGGTTACC,-0.252
AAGCGCCT,-0.0987
AGACGGAA,-0.028
AGCTCCAT,-0.157
AAACAGTA,0.283
GAAACTCC,-0.347
ACAGTGGT,-0.0679
AGTCAAGC,-0.223
CCCTCAGG,-0.258
GATTCCAA,-0.00354
AGTCACTG,-0.113

# Sample 6 — target: JUN, bZIP domain (human); method: DHFR protein complementation; sample: yeast; relative to: wild-type JUN-FOS pair; direction: higher = stronger binding
# Setting: single substitutions, most at no-binding floor
# Starting sequence: JUN, bZIP domain (human); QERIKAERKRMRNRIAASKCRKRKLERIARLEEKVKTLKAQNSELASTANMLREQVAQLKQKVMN; partner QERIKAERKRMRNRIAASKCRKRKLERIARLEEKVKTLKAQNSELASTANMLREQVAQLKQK
Substitution,binding fitness [natural log]
M51W,-0.42
K36C,-0.418
V56M,-0.459
E54Y,-0.698
A40L,-0.361
T37W,-0.219
K34G,-0.999
V56Y,-0.583
N42G,-0.59
Q58V,-0.38
V35C,-0.394
A29M,-0.662
A49C,0.137
A29Q,-0.326
K36F,-0.762
Q55Y,-0.803
T37V,-0.177
L38Y,-1.17
Q55T,-0.455
R30Y,-0.25

# Sample 7 — method: protein-binding microarray; molecule type: double-stranded DNA, one strand shown; sample: in vitro; concentration: 250 nM; setting: 60-bp whole probe; together with: salmon DNA 0.4 mg/ml; relative to: random background probes; direction: higher = stronger binding; constant ends, left off below: GCCTAGCAC … GTCTTGATTCGCTTGACGCTGCTG
# Target: Interferon regulatory factor 5, full length, phosphomimetic (IRF5, Homo sapiens, UniProt Q13568-2, residues 1-514, K96S/S451D/S453D/S456D/S462D)
Sequence,log fluorescence [z-score]
TCTGTTTTCTCCATGGAAGAGTGCTAG,1.62
TCAGATATAGGATAACGAGCCGTGCTA,0.119
GACGCTCTCAGTATCGAGACGTGCTAG,1.51
GACGAACTGGGCACTGGAGACGTGCTA,-0.494
TTTTTTATCAATCATTTTCGTGTGCTA,2.72
GACGGTATCCTACTGCTGAGGTGCTAG,-0.248
TTACATATCAGTATCGATTAGTGCTAG,8.07
TTAGGTATCGATATCGGTTAGTGCTAG,8.93
TTCTATGACTACATTGCAGCGTGCTAG,0.338
GACGGTTTAGGTATCGGGACGTGCTAG,1.24
GACGGTATCCTCATCCTGACGTGCTAG,-0.185
GACGATCTCAGATTCGAGACGTGCTAG,-0.123
GACGGTATCGACATTCGGGACGTGCTA,2.17
TTAGGTATCGACTATCGATTAGTGCTA,7.34
GACGGTTTCAGTCTCGGGACGTGCTAG,3.07
CCATTCTTGGGACTCACCTGGTGCTAG,-0.356
TCATCTCTGGTCTTTGTACTGTGCTAG,0.551
TCATCTTTTATTTTTTTACTGTGCTAG,1.26
GACGATTTCAGTACCGAGACGTGCTAG,1.22
GCACCTCTAGACTCTAAATTCGTGCTA,0.0132
AGAGCCATCAATATCTGCAAGTGCTAG,0.241
GACGGTCGCGGTATCGGGACGTGCTAG,0.481
GACGGACTGAGTATCGGGACGTGCTAG,1.18
GACGATCTAAGACTGGAGACGTGCTAG,-0.139
TCATAAATCTTTTTCCCACTGTGCTAG,0.814

# Further values, each from its own experiment
Substance,target,assay,test system,conditions,scale,quantity,value
"PhoQ, residues 284 288 289 292 302 303 SMYGEC","PhoP, residues 12 14 15 18 19 VHSCL (Escherichia coli, UniProt P23836)","Sort-seq, measured: YFP reporter",E. coli,"PhoQ-PhoP variant library, together with: 10 µM Mg2+","relative to: high Mg2+ state, higher = stronger signaling",fold induction,8.03

# Repeated from above (sample 4):
Substitution,normalised enrichment score
KSLAKSLRQSFRR [K4A],-0.391
KSLKASLRQSFRR [K5A],-0.128
KSLKKSLRQAFRR [S10A],-1.16
KSLKKSLRQSARR [F11A],-0.242
KSLKKSLRASFRR [Q9A],0.254
KSLKKALRQSFRR [S6A],-0.728
KSAKKSLRQSFRR [L3A],-0.379
